Assay results from different studies.
Every numbered part comes from another study and shows a few of its results, in no order.
UniProt Q9H4B4, sequence (whole entry, looked up): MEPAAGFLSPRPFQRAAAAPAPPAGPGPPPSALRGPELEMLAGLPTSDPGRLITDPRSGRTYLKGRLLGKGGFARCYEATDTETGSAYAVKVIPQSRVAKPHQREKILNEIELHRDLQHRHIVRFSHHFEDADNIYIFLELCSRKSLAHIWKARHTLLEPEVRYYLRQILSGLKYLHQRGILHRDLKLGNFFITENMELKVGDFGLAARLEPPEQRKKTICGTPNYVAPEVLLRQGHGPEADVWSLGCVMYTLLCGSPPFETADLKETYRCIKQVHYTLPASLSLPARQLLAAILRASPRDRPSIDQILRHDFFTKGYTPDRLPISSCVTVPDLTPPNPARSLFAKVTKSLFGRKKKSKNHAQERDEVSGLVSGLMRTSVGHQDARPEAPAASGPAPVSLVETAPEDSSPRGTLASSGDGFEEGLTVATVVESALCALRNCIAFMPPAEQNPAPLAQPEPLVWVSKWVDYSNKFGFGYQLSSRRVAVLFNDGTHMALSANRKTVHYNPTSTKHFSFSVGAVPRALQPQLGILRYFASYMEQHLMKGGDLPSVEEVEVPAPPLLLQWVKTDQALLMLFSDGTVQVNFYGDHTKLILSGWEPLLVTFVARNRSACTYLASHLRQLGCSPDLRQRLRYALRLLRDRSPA
UniProt P35968, sequence (whole entry, looked up): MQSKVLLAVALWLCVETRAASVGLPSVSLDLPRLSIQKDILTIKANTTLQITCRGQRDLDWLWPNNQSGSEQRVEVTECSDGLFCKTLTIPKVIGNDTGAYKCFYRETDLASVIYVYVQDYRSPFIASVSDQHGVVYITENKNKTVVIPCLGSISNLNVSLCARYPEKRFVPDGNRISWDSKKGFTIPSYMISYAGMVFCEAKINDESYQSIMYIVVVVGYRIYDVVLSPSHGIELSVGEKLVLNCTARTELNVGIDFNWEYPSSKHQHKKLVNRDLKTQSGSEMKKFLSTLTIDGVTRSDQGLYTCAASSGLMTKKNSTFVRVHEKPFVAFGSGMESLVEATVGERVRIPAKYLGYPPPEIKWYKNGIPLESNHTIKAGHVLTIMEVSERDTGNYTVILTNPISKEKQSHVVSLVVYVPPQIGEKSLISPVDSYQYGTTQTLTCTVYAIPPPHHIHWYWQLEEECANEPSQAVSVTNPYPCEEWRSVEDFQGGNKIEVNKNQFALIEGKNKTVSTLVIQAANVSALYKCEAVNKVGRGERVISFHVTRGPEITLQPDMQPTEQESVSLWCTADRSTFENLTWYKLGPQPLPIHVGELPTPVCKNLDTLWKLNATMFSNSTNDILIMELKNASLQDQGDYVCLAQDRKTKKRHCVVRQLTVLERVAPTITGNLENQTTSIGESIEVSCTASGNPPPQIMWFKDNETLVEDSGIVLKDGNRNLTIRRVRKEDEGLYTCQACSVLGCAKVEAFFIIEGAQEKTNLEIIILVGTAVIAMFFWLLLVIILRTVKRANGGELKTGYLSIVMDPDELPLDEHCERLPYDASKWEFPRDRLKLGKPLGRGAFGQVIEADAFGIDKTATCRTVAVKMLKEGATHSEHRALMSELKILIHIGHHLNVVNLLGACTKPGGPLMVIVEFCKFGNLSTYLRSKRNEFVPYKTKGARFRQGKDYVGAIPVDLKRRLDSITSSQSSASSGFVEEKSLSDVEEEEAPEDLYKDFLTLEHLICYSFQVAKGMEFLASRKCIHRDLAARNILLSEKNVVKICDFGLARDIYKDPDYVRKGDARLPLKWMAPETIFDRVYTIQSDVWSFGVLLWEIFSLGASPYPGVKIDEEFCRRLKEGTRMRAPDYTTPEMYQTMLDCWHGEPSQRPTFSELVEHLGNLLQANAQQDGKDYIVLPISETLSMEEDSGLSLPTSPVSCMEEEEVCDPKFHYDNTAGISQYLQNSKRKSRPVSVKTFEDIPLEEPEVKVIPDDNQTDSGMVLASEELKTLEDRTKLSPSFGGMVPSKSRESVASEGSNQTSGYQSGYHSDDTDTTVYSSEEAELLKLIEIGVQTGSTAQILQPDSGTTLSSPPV
UniProt P08581, sequence (whole entry, looked up): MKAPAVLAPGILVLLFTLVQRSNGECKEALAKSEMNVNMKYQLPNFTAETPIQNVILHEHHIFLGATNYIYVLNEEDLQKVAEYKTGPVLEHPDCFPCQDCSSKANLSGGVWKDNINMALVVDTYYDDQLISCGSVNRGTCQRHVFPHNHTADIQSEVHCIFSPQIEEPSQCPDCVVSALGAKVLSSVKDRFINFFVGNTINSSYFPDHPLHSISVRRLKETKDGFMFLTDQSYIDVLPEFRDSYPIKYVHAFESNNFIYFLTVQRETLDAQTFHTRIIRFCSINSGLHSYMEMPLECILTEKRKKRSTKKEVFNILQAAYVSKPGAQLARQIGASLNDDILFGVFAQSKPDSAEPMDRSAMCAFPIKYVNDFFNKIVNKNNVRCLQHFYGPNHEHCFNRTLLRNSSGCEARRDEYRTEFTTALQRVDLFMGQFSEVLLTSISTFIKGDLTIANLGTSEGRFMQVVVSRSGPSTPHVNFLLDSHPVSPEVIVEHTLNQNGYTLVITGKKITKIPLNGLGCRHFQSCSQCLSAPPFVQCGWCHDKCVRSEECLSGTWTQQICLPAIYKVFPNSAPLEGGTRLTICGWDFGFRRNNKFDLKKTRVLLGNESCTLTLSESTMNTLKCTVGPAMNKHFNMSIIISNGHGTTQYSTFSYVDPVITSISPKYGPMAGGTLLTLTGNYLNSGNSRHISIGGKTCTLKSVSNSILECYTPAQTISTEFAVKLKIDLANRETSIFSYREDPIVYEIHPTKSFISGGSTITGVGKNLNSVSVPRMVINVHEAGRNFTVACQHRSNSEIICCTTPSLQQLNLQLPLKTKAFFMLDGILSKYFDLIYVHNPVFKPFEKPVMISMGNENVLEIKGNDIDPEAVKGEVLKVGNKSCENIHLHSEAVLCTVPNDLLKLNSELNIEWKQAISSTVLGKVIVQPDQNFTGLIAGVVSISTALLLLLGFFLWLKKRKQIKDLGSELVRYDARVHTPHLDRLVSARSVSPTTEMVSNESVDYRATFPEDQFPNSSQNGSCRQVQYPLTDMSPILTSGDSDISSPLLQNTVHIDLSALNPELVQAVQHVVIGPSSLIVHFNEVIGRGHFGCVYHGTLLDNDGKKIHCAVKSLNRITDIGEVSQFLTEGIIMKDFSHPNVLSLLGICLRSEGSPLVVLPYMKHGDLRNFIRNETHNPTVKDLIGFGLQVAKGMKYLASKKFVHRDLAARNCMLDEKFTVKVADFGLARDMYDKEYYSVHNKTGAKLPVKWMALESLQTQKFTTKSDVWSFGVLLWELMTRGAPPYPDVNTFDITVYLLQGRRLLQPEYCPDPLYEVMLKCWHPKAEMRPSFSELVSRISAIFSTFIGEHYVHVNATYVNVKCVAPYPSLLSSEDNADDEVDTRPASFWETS
UniProt Q86UE8, sequence (whole entry, looked up): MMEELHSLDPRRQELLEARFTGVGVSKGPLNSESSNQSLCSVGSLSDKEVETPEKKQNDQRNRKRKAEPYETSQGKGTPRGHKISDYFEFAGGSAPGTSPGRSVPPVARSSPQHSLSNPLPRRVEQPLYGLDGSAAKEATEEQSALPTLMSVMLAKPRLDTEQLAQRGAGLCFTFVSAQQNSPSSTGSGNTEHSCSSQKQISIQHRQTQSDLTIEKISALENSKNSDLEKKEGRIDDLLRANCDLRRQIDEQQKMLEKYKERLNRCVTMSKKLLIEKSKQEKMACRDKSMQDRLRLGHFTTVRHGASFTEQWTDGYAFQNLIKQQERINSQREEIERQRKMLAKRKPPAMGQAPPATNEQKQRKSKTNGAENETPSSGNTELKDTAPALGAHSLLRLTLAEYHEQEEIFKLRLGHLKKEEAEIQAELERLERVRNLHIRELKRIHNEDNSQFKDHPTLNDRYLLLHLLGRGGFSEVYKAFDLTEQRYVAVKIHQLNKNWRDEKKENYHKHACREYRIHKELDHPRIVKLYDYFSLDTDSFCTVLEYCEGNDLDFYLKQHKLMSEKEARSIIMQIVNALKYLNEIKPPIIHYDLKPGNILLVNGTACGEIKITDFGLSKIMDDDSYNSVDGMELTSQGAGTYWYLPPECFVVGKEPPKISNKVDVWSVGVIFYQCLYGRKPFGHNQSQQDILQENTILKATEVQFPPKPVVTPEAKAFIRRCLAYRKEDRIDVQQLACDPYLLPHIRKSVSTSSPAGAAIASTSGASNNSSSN
UniProt P32298, sequence (whole entry, looked up): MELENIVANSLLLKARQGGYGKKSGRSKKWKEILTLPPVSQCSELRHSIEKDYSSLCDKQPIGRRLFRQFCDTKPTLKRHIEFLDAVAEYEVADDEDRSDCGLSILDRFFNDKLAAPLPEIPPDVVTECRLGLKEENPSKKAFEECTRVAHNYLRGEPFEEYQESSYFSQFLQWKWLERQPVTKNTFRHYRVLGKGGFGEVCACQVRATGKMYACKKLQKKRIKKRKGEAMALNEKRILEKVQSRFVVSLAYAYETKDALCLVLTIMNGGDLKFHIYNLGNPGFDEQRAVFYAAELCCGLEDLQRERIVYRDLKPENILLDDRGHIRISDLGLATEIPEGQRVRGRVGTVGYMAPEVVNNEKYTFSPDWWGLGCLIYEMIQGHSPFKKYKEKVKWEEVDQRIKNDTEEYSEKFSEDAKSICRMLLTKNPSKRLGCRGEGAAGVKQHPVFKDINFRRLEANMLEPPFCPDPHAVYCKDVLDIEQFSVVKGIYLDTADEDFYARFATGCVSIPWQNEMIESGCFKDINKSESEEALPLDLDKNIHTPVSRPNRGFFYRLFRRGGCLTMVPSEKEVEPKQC

Study 1
Species: mouse
Matrix: microsomes or S9
Concentration: 2 µM
Time: 0.5 h
SMILES | remaining compound [%]
O=C(Cn1ccccc1=O)N1C[C@@H]2CC[C@H](C1)N(Cc1cscn1)C2=O | 94.6
CC(C)(C)NS(=O)(=O)c1ccc(NC(=O)C2c3ccccc3Oc3ccccc32)cc1 | 74.4
CCOc1ccc(/N=c2\cc(C)c(C#N)c3[nH]c4ccccc4n23)cc1 | 0.306
COc1ccc(-c2ncnc3nc4n(c23)CCC4)cc1 | 0.306
Cc1nc(O)cc(COCc2ccccc2)c1C#N | 6.57
Nc1c2c(nc3ccccc13)N(C1CCCCC1)CC2 | 1.37
COCCNS(=O)(=O)c1cc(C(=O)O)cc(-c2cccc(F)c2F)c1 | 92.2
COc1ccc(-c2ccnc3cc(C4CCCCC4)nn23)cc1OC1CCCC1 | 13.5
O=C(O)CC1CCC(c2ccc(-c3ccc(C(=O)NCCC(=O)Nc4nc(-c5cc(F)c(F)cc5F)cs4)cn3)cc2)CC1 (centres unmarked) | 73.5
CC(C)N(CCNc1ncnc2nc[nH]c12)C(C)C | 54.3

Study 2
Compound: CCc1ccccc1C(=O)Nc1n[nH]c2c(C)c(F)c(C3C(C#N)=C(C)N(C)C(C)=C3C#N)cc12
Concentration: 1 µM
target | effect on | technique | remaining binding
MAPK4 (Homo sapiens, UniProt P31152) | cell-free assay | competition with immobilised ligand | 96%
STK24 (Homo sapiens, UniProt Q9Y6E0) | cell-free assay | competition with immobilised ligand | 90%
MATK (Homo sapiens, UniProt P42679) | cell-free assay | competition with immobilised ligand | 100%
Tyrosine-protein kinase ABL1, phosphorylated (ABL1, Homo sapiens, UniProt P00519, F317I) | binding |  | 100%
CDK11B (Homo sapiens, UniProt P21127) | cell-free assay | competition with immobilised ligand | 100%
PKMYT1 (Homo sapiens, UniProt Q99640) | cell-free assay | competition with immobilised ligand | 100%
GSK3A (Homo sapiens, UniProt P49840) | cell-free assay | competition with immobilised ligand | 90%
LIM domain kinase 1 (LIMK1, Homo sapiens, UniProt P53667) | cell-free assay | competition with immobilised ligand | 100%
PLK3 (Homo sapiens, UniProt Q9H4B4) | cell-free assay | competition with immobilised ligand | 100%
FES (Homo sapiens, UniProt P07332) | cell-free assay | competition with immobilised ligand | 68%
DAPK2 (Homo sapiens, UniProt Q9UIK4) | cell-free assay | competition with immobilised ligand | 63%
MAP3K7 (Homo sapiens, UniProt O43318) | cell-free assay | competition with immobilised ligand | 92%
SGK1 (Homo sapiens, UniProt O00141) | cell-free assay | competition with immobilised ligand | 100%
PRKACA (Homo sapiens, UniProt P17612) | cell-free assay | competition with immobilised ligand | 89%
MAPK6 (Homo sapiens, UniProt Q16659) | cell-free assay | competition with immobilised ligand | 100%
CDC42BPA (Homo sapiens, UniProt Q5VT25) | cell-free assay | competition with immobilised ligand | 100%
PTK2 (Homo sapiens, UniProt Q05397) | cell-free assay | competition with immobilised ligand | 82%

Study 3
Compound: c1ccc(-c2[nH]ncc2-c2ccnc3ccccc23)nc1
Effect on: enzyme activity
Action: inhibitor
Concentration: 0.5 µM
Baseline: control
target | remaining activity [%]
CDC42BPB (Homo sapiens, UniProt Q9Y5S2) | 102
PLK3 (Homo sapiens, UniProt Q9H4B4) | 91.7
ROCK1 (Homo sapiens, UniProt Q13464) | 103
RPS6KA4 (Homo sapiens, UniProt O75676) | 87.2
MET (Homo sapiens, UniProt P08581) | 94.1
CLK3 (Homo sapiens, UniProt P49761) | 105
KDR (Homo sapiens, UniProt P35968) | 103
Myosin-IIIb (MYO3B, Homo sapiens, UniProt Q8WXR4) | 91.7
GRK4 (Homo sapiens, UniProt P32298) | 94.3
DCLK2 (Homo sapiens, UniProt Q8N568) | 97.4
PAK3 (Homo sapiens, UniProt O75914) | 99.7
TXK (Homo sapiens, UniProt P42681) | 89.1
CLK4 (Homo sapiens, UniProt Q9HAZ1) | 101
TLK2 (Homo sapiens, UniProt Q86UE8) | 98.6

Study 4
Organism: Plasmodium berghei
Action: inhibitor
Cells: Huh-7
Strain: liver stage
Concentration: 10 µM
Time: 24 h
Baseline: untreated control
SMILES | infection rate [%]
CC(=O)O[C@]1(C(C)=O)CC[C@H]2[C@@H]3C=C(C)C4=CC(=O)CC[C@]4(C)[C@H]3CC[C@@]21C | 68
C[C@@H]1O[C@@H]1P(=O)(O)O | 101
CC(C)NCC(O)c1cc(O)cc(O)c1 (centres unmarked) | 94.7
CCN(CC)CCNc1ccc(CO)c2sc3ccccc3c(=O)c12 | 54.7
CN(C)CCCN1c2ccccc2CCc2ccccc21 | 89.2
O=C1O[C@H](CO)[C@@H](O)[C@H](O)[C@H]1O | 99
CC(C)NCC(O)c1ccc(O)c(O)c1 (centres unmarked) | 96.6
CN1CCC(=C2c3ccccc3CC(=O)c3sccc32)CC1 | 74.5
O=C(NCC1CCCCN1)c1cc(OCC(F)(F)F)ccc1OCC(F)(F)F (centres unmarked) | 153
Cc1cnc(NC(=O)C2=C(O)c3ccccc3S(=O)(=O)N2C)s1 | 107
COC1=CC(=O)C[C@@H](C)[C@]12Oc1c(Cl)c(OC)cc(OC)c1C2=O | 137
O[C@@H](c1cc(C(F)(F)F)nc2c(C(F)(F)F)cccc12)[C@H]1CCCCN1 (racemic) | 70.9
CCc1cc(C(N)=S)ccn1 | 101
O=C(O)P(=O)(O)O | 97.2
O=C(c1ccc(F)cc1)C1CCN(CCn2c(=O)[nH]c3ccccc3c2=O)CC1 | 58.3

For quick reference, copied from above (study 2):
target | effect on | technique | remaining binding
PLK3 (Homo sapiens, UniProt Q9H4B4) | cell-free assay | competition with immobilised ligand | 100%
FES (Homo sapiens, UniProt P07332) | cell-free assay | competition with immobilised ligand | 68%
DAPK2 (Homo sapiens, UniProt Q9UIK4) | cell-free assay | competition with immobilised ligand | 63%
MAP3K7 (Homo sapiens, UniProt O43318) | cell-free assay | competition with immobilised ligand | 92%
SGK1 (Homo sapiens, UniProt O00141) | cell-free assay | competition with immobilised ligand | 100%
PRKACA (Homo sapiens, UniProt P17612) | cell-free assay | competition with immobilised ligand | 89%
MAPK6 (Homo sapiens, UniProt Q16659) | cell-free assay | competition with immobilised ligand | 100%
CDC42BPA (Homo sapiens, UniProt Q5VT25) | cell-free assay | competition with immobilised ligand | 100%
PTK2 (Homo sapiens, UniProt Q05397) | cell-free assay | competition with immobilised ligand | 82%
